Measurements of several laboratories.
Each line is one published result; not all experiments were run side by side.
Method: steady-state kinetics
B1: protein (Cecembia lonarensis, UniProt K1KV82); chain QENKEKDRTPSSKHLTDNILQPKRSSDFMAFKYEYSTVDLYREFSESIMDKARSEVEILESVNRQGRYKPNVESLKLHEVPEWFEDAKLGIFLDWGPWSVPGYAPLKGAEASTGGSYPDWYEFLMDNLYKEYHDEVWGADFRRDDFLPLLTGENFNSEEYMLLAVNSGAKYFVPFTKHHAGWTMWESEFTKRNAVEMGPGRDIYKELIEAGKKYDMKMGFYFSVSEWEYPVIVDQNLSQWDPVKNLAIFQDALGQIPRATPLASYFPALHDRMISGKIPVKDYFADYMIPSFKEAVDKYDPDLVWYDGGWGSPVSISRTMETSAYFYNQAEGKKDVVINNRAGSSLSEDDLIKVRDLMDSGKRDEAMKIYLSGQQLGDYGTPEFTIGDVDIQSKWEVCRSISPAFGYNWQDDEASSLSGEELIKLFVDIVANNGNLLLVISPDGSGKLPDIQKDRLLELGDWMKVNAESIHNTRPWKVQKENDKFFTKSKDGKSLFVHCTNWPGENLIINTPIEEGIKGIKLLGSDINLQFTKASNGNLEIPIPKDFQNNPSLISKYVWTFKIDLN
B2: protein (Adiantum capillus-veneris, UniProt A0A4Y6I289); chain MTDAVENKQVEFGALEVEGIKFAPSVAALGSTKQLVLGGAGFRGLEISGNLVKFTAIGIYVDEAIIPHLSPKLHGKSIEELCNNELLFEEVLAAPFEKLVRVVFLLPLTGPQYSEKVVERMGLLPNPGIKEESTKQFLEIFKPENFPPRTSLICSFTEEALKVAFMKTDDFPEDADAVIEDKWLARAFLASIIGKDGVSPLAKLSFAERMSRCL
B3: TylM1 H123N (Streptomyces fradiae, UniProt P95748); chain MAHSSATAGPQADYSGEIAELYDLVHQGKGKDYHREAADLAALVRRHSPKAASLLDVACGTGMHLRHLADSFGTVEGLELSADMLAIARRRNPDAVLHHGDMRDFSLGRRFSAVTCMFSSIGNLAGQAELDAALERFAAHVLPDGVVVVEPWWFPENFTPGYVAAGTVEAGGTTVTRVSHSSREGEATRIEVHYLVAGPDRGITHHEESHRITLFTREQYERAFTAAGLSVEFMPGGPSGRGLFTGLPGAKGETR
B4: protein (Candidatus Protochlamydia amoebophila, UniProt A0A2P9HA01); chain KNQQNSVSSTLLILKKRSLILFQFFLIIIVYHTLKDLKDTIVITASDAGAEIIPFIKIWGMLPLAICASYFFAKFYNKFGREKTFYIFSSFLLVNYLFFAFVLYPFRKFFYLENVADYLHMILPVGAKGFVAMVSYWHYTLFYLTAELWSMLILSILFWGYVSDTTSLVEAKKFYPLCMFVGNMAGIISGQLSHFLCQHLSDFMSWERTLQWMIGIVCVCGLLIMIINRRLALTTDFSAIKQKVKKQIAPSSFKDNVMDVLRTGPLLCIAVLVVGFGLTTNLIEVIWKENIRQLHPTPQAYNAYINQLTSLIGTGAVCIALLSSWIFRKFTWTQIALTTPLCLLITSSAFFSSLLMPKELLAEIASFFQFSPTQLIVTLGSICYVFSMSAKYTIFDTSKEIAFLSIETEKRTYAKSVIDSIGSRLGKSGASCFYQFLLIAFGIASEHILLIGVVSIIMIGISIFATKKLGGQLSGKNENHRFIEASHG
B5: CMBL (Homo sapiens, UniProt Q96DG6); chain MANEAYPCPCDIGHRLEYGGLGREVQVEHIKAYVTKSPVDAGKAVIVIQDIFGWQLPNTRYIADMISGNGYTTIVPDFFVGQEPWDPSGDWSIFPEWLKTRNAQKIDREISAILKYLKQQCHAQKIGIVGFCWGGTAVHHLMMKYSEFRAGVSVYGIVKDSEDIYNLKNPTLFIFAENDVVIPLKDVSLLTQKLKEHCKVEYQIKTFSGQTHGFVHRKREDCSPADKPYIDEARRNLIEWLNKYM
B6: nicotinamidase (Streptococcus pneumoniae, UniProt A0A0H2UR34); chain MTKALISIDYTEDFVADSGKLTAGAPAQAISDAISKVTRLAFERGDYIFFTIDAHEENDCFHPESKLFPPHNLIGTSGRNLYGDLGIFYQEHGSDSRVFWMDKRHYSAFSGTDLDIRLRERRVSTVILTGVLTDICVLHTAIDAYNLGYDIEIVKPAVASIWPENHQFALGHFKNTLGAKLVDENLNELFE
Sequence of UniProt P76562 (whole entry, looked up): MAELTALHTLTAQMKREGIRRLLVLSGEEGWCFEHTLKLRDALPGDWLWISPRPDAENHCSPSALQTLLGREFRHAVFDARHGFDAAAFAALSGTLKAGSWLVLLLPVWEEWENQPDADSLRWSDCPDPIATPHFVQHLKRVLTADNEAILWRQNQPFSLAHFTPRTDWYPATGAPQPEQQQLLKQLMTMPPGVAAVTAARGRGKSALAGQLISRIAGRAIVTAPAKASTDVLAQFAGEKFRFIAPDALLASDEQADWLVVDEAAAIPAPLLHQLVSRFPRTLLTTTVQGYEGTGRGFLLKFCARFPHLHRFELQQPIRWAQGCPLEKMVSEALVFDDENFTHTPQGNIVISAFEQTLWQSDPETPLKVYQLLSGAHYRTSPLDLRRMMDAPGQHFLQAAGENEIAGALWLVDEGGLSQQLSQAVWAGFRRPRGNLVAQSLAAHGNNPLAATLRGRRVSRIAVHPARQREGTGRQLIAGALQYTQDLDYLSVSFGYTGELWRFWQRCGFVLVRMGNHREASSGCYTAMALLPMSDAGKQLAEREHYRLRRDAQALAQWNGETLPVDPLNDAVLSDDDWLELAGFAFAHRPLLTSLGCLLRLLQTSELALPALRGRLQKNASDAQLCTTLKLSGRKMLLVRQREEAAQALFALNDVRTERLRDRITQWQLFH

tmcA (Escherichia coli, UniProt P76562) — Km (Nc1nc2c(ncn2[C@@H]2O[C@H](COP(=O)(O)OP(=O)(O)OP(=O)(O)O)[C@@H](O)[C@H]2O)c(=O)[nH]1; pH 7.8): 117 µM
enzyme (Comamonas testosteroni, UniProt B7WQT1) — Km (O=C(O)c1ccccc1C(=O)O; pH 8, 25 °C, apparent): 3.6 µM
B1 (protein) — Km (O=[N+]([O-])c1ccc(O[C@@H]2OC[C@H](O)[C@@H](O)[C@@H]2O)cc1; pH 5.5, 35 °C, substrate inhibition): 7900 µM
B2 (protein) — Km (O=C(/C=C/c1ccc(O)cc1)c1ccc(O)cc1O): 61.4 µM
pyc (Rhizobium etli, UniProt Q2K340) — Km (CC(=O)C(=O)O; pH 7.5, 25 °C, with: MgATP 2.5 mM): 470 µM
B3 (TylM1 H123N) — Km (Cc1cn([C@H]2C[C@H](O)[C@@H](COP(=O)(O)OP(=O)(O)O[C@H]3O[C@H](C)[C@@H](O)[C@H](N)[C@H]3O)O2)c(=O)[nH]c1=O; 25 °C, with: SAM): 930 µM
RALBP1 (Homo sapiens, UniProt Q15311) — Km (CNC(=O)c1cc(Oc2ccc(NC(=O)Nc3ccc(Cl)c(C(F)(F)F)c3)cc2)ccn1; pH 7.4, 37 °C): 10.4 µM
B4 (protein) — Km (Nc1nc2c(ncn2[C@@H]2O[C@H](COP(=O)(O)OP(=O)(O)OP(=O)(O)O)[C@@H](O)[C@H]2O)c(=O)[nH]1; pH 7, 30 °C, transporter, labelled substrate, apparent, not purified): 22 µM
B5 (CMBL) — Km (Cc1oc(=O)oc1COC(=O)[C@@H]1N2C(=O)[C@@H](NC(=O)[C@H](N)c3ccccc3)[C@H]2SC1(C)C; lysate; pH 7.4, 37 °C, not purified): 63.4 µM
protein (Clonorchis sinensis, UniProt H2KTV3) — Km (NCCc1ccc(O)c(O)c1; oocytes; pH 7.4, NaCl 96 mM, not purified): 0.454 µM
B6 (nicotinamidase) — Km (NC(=O)c1cccnc1; pH 7.3, progress curve analysis): 2.7 µM
protein (Zea mays, UniProt A0A2H4PMI3) — Km (O=CCCCC(=O)O; pH 7.5, 30 °C, substrate inhibition, with: NAD+ 3.0 mM): 84 µM
